Results collected from several papers.
Protocols differ between the studies behind these lines. Values joined by “and” are separate records of one study, mostly repeats; a detail may differ. ± gives the spread as reported.
CDK9 with cyclin T1: Cyclin-dependent kinase 9, with cyclin T1 (CDK9, Homo sapiens, UniProt P50750)
Chain of UniProt P50750 (whole entry, looked up): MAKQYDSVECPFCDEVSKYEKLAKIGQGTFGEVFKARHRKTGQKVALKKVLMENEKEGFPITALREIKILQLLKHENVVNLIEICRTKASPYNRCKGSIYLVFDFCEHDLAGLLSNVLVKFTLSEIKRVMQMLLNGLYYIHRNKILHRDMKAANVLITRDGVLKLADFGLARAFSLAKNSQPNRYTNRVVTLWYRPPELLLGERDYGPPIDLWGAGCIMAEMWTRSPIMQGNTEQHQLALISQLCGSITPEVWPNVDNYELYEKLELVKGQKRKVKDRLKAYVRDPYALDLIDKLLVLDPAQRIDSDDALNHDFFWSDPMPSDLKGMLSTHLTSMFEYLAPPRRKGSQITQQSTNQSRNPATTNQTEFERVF
Chain of UniProt P45983 (whole entry, looked up): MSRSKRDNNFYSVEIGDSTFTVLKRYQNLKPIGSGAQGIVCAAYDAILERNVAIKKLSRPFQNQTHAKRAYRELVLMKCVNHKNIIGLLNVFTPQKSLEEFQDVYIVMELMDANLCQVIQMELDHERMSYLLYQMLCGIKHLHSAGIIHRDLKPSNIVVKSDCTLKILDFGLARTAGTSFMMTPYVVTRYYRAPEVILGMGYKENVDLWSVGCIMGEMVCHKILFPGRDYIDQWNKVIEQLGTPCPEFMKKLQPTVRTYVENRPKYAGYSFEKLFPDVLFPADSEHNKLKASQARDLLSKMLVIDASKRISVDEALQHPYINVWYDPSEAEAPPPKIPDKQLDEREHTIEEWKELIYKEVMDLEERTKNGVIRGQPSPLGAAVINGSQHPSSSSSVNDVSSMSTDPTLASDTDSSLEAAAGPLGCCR
Chain of UniProt P48169 (whole entry, looked up): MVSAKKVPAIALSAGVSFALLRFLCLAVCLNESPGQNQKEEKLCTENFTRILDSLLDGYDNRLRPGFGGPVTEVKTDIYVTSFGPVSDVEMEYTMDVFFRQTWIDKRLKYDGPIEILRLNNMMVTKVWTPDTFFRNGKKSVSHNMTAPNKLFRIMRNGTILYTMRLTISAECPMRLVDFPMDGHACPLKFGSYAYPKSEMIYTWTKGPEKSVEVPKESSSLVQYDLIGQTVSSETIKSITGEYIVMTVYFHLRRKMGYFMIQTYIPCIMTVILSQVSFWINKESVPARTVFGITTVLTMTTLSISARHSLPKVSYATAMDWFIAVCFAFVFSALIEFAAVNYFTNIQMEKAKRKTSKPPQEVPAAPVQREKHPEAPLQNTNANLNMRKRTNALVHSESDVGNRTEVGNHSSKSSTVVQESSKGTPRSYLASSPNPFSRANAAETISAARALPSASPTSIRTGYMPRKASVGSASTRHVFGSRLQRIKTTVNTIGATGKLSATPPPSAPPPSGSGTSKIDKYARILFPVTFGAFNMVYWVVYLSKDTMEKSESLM
Chain of UniProt Q704Y3 (whole entry, looked up): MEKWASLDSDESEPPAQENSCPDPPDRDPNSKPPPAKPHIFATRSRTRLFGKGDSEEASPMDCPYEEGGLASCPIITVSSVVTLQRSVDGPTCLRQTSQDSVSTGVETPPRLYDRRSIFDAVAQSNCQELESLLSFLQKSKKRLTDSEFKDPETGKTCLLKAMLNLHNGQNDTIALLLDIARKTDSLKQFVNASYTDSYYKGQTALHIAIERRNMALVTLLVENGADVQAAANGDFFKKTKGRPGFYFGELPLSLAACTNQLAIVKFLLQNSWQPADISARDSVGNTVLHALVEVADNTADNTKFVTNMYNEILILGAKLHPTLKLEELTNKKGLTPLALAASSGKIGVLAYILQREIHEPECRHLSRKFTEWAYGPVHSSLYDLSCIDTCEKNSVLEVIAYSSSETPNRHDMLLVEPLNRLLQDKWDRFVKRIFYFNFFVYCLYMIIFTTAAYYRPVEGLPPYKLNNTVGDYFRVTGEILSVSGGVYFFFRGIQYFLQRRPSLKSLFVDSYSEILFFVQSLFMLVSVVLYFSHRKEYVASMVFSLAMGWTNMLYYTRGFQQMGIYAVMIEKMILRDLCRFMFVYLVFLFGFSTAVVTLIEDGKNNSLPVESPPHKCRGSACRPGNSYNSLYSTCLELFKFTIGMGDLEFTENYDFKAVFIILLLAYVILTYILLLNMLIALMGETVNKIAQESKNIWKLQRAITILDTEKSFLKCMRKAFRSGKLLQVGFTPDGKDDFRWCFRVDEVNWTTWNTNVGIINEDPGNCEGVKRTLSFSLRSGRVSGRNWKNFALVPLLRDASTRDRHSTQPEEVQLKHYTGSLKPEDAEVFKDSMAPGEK
Chain of UniProt P47870 (whole entry, looked up): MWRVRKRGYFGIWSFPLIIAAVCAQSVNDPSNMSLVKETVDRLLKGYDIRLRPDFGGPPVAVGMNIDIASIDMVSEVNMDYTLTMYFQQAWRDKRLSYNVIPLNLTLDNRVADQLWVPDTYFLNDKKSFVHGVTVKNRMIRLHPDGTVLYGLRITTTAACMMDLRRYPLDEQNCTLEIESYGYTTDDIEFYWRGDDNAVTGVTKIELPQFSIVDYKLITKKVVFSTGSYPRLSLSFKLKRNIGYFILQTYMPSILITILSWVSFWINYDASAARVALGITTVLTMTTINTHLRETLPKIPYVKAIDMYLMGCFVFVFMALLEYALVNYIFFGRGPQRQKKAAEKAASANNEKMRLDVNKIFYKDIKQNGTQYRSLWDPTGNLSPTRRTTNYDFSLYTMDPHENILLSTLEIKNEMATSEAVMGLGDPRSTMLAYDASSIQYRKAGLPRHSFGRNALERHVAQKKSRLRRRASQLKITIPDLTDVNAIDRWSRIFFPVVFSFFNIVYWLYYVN
Chain of UniProt Q9NXA8 (whole entry, looked up): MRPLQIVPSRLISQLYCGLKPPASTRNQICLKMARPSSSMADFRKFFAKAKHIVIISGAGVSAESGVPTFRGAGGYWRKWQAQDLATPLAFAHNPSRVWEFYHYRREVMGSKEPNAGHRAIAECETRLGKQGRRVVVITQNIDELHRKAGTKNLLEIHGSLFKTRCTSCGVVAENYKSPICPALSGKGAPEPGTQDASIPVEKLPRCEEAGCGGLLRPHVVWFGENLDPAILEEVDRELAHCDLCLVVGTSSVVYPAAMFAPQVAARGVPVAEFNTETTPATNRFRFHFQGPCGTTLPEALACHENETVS
Chain of UniProt Q15233 (whole entry, looked up): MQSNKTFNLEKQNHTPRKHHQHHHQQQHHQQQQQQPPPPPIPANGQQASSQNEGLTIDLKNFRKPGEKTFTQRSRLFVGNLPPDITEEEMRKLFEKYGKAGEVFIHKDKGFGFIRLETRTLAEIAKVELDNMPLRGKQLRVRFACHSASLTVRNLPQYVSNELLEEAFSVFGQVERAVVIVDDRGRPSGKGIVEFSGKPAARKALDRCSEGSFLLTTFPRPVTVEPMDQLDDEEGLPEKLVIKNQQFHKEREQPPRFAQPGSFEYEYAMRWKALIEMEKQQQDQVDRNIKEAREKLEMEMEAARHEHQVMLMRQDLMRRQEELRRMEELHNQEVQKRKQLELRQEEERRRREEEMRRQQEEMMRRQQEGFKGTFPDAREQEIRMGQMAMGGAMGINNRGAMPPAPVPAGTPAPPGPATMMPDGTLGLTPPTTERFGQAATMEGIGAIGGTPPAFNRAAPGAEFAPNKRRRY
Chain of UniProt Q9Y210 (whole entry, unmodified, looked up): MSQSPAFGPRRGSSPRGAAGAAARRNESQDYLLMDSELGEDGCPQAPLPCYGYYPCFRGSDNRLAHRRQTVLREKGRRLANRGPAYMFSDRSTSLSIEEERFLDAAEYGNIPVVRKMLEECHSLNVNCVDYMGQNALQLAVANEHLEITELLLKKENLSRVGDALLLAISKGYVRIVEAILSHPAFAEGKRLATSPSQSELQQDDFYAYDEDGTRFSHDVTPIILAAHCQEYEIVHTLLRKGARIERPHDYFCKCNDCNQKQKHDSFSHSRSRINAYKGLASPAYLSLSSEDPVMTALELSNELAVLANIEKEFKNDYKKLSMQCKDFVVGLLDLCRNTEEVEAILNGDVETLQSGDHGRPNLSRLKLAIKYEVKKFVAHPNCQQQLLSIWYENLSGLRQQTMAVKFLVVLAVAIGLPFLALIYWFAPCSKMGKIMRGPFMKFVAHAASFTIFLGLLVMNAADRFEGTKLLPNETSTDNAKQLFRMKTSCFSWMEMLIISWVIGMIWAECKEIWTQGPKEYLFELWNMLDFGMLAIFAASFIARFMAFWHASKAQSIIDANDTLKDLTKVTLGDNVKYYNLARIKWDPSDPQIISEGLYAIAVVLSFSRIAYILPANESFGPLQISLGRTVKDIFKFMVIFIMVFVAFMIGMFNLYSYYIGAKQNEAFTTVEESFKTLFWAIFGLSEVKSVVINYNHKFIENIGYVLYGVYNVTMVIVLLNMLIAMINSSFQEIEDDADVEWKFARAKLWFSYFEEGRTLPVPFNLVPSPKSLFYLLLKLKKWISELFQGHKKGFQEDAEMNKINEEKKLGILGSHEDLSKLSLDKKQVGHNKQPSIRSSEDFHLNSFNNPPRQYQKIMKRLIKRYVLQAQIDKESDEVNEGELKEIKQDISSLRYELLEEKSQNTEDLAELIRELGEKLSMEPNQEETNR
Chain of UniProt O14764 (whole entry, looked up): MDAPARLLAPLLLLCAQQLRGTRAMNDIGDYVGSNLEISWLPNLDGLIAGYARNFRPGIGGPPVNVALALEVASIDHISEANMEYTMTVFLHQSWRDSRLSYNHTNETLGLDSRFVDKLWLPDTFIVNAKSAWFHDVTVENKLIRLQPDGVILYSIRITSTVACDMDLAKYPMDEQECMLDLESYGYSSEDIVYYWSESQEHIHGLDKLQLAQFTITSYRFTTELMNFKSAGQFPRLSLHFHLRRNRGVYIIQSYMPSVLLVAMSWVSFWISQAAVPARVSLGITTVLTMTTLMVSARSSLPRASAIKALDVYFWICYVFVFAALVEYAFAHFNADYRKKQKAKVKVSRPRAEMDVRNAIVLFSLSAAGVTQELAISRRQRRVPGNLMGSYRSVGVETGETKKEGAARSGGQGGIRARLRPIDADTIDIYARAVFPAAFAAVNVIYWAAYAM

For CC[C@H](C)[C@H](NC(=O)[C@H](CO)NC(=O)[C@H](Cc1ccc(O)cc1)NC(=O)[C@H](CC(=O)O)NC(=O)[C@H](CO)NC(=O)[C@@H](NC(=O)[C@H](Cc1ccccc1)NC(=O)[C@@H](NC(=O)CNC(=O)[C@@H]1CCCN1C(=O)[C@H](C)NC(=O)[C@@H](N)Cc1ccc(O)cc1)[C@@H](C)O)[C@@H](C)CC)C(=O)N[C@@H](C)C(=O)N[C@@H](CCSC)C(=O)N[C@@H](CC(=O)O)C(=O)N[C@@H](CCCCN)C(=O)N[C@H](C(=O)N[C@@H](Cc1c[nH]cn1)C(=O)N[C@@H](CCC(N)=O)C(=O)N[C@@H](CCC(N)=O)C(=O)N[C@@H](CC(=O)O)C(=O)N[C@@H](Cc1ccccc1)C(=O)N[C@H](C(=O)N[C@@H](CC(N)=O)C(=O)N[C@@H](Cc1c[nH]c2ccccc12)C(=O)N[C@@H](CC(C)C)C(=O)N[C@@H](CC(C)C)C(=O)N[C@@H](C)C(=O)N[C@@H](CCC(N)=O)C(=O)N[C@@H](CCCCN)C(=O)NCC(=O)N[C@@H](CCCCN)C(=O)N[C@@H](CCCCN)C(=O)N[C@@H](CC(N)=O)C(=O)N[C@@H](CC(=O)O)C(=O)N[C@@H](Cc1c[nH]c2ccccc12)C(=O)N[C@@H](CCCCN)C(=O)N[C@@H](Cc1c[nH]cn1)C(=O)N[C@@H](CC(N)=O)C(=O)N[C@H](C(=O)N[C@H](C(=O)N[C@@H](CCC(N)=O)C(=O)O)[C@@H](C)O)[C@@H](C)CC)C(C)C)[C@@H](C)CC, the EC50 was 15 nM (Gastric inhibitory polypeptide receptor (Rattus norvegicus, UniProt P43219); cAMP, agonist).
With COc1cc[n+]2c(c1)-c1cc(OC)cc[n+]1[Ir-3]213([c]2ccccc2-c2ccc4ccc(Cl)cc4[n+]21)[c]1ccccc1-c1ccc2ccc(Cl)cc2[n+]13.F[P-](F)(F)(F)(F)F the EC50 was > 1000 nM (CDK9 with cyclin T1; enzyme activity, inhibitor).
For CC(=O)N[C@@H](Cc1cnc[nH]1)C(=O)N[C@H](Cc1ccc(C(C)(C)C)cc1)C(=O)N[C@@H](CCCN=C(N)N)C(=O)N[C@@H](Cc1c[nH]c2ccccc12)C(N)=O, the EC50 was > 100000 nM (Melanocortin receptor 3 (Mus musculus, UniProt P33033); reporter gene, agonist).
With O=P(O)(O)OP(=O)(O)OP(=O)(O)OCC1OC(n2cnc3c(Cl)ncnc32)C(O)C1O (stereo not shown) the EC50 was > 300000 nM (P2X purinoceptor 2 (P2rx2, Rattus norvegicus, UniProt P49653); ion current, agonist, two-electrode voltage clamp; oocytes).
The EC50 of Clc1ccc2ccc3[n+](c2c1)[Ir-3]12([c]4ccccc4-3)([c]3ccccc3-c3ccc4ccc(Cl)cc4[n+]31)[n+]1ccc(Br)cc1-c1cc(Br)cc[n+]12.F[P-](F)(F)(F)(F)F is reported as 63.1 nM (CDK9 with cyclin T1; enzyme activity, inhibitor).
O=C(C1CCCCC1)N1CC(=O)N2CCc3ccccc3[C@@H]2C1 gave an EC50 of 193 ± 110 nM (TRPM channel (Clonorchis sinensis, UniProt G7YJJ5); calcium influx, agonist, FLIPR calcium; HEK293 transfected).
COC(=O)[C@@]1(C)C=C(C(=O)Nc2cccc(C(=O)Nc3ccc(Nc4nccc(-c5cccnc5)n4)c(C)c3)c2)C(=O)CC1 gave an EC50 of 11.5 nM and ~10 nM (Mitogen-activated protein kinase 8 (MAPK8, Homo sapiens, UniProt P45983); target engagement, NanoBRET; HEK293; 2 h, together with: tracer K-5).
With CCCCCCCC/C=C\CCCCCCCC(=O)NCCO the EC50 was 350 ± 70 nM (Transient receptor potential cation channel subfamily V member 1 (Trpv1, Mus musculus, UniProt Q704Y3); ion current, agonist, whole-cell patch clamp; HEK293; 24 °C, wild type, +80 mV).
With O=C(NC1CCC1)[C@H](Cc1c[nH]c2ccccc12)NC(=O)[C@H](CCCCNC(=S)NCCc1noc(=O)[nH]1)NS(=O)(=O)c1cccc(F)c1 the EC50 was > 10000 nM (NAD-dependent protein deacylase sirtuin-5, mitochondrial (SIRT5, Homo sapiens, UniProt Q9NXA8); thermal stabilisation, ITDRF-CETSA; HEK293T; 2 h, 52 °C).
With O=C(c1cc2c(s1)CCCCC2)N1CCC(n2c(=O)[nH]c3ccccc32)CC1 the EC50 was 4080 ± 1040 nM (Short transient receptor potential channel 6 (TRPC6, Homo sapiens, UniProt Q9Y210, K676R); channel activation, agonist, whole-cell patch clamp).
COc1ccc(CNC(=O)[C@H]2CN(C(=O)[C@H](F)Cl)CCN2S(=O)(=O)c2ccc(OC)cc2)cc1 gave an EC50 of 9000 nM (Non-POU domain-containing octamer-binding protein (Homo sapiens, UniProt Q15233)).
COc1ccc(C(=O)Nc2c(-c3cccs3)nc3ccccn23)cc1 has an EC50 of 2910 nM (Gamma-aminobutyric acid receptor subunit alpha-4/beta-2/delta (Homo sapiens, UniProt O14764+P47870+P48169); positive allosteric modulator, FLIPR membrane potential; HEK293 Flp-In; together with: GABA EC20).
With O=C(O)/C=C/c1cccc(NC(=O)c2cc(-c3ccccc3)ccc2F)c1 the EC50 was > 10000 nM (Prostaglandin E2 receptor EP1 subtype (PTGER1, Homo sapiens, UniProt P34995); calcium signal, agonist, fluorescence).

Some of these lines once more:
With COc1cc[n+]2c(c1)-c1cc(OC)cc[n+]1[Ir-3]213([c]2ccccc2-c2ccc4ccc(Cl)cc4[n+]21)[c]1ccccc1-c1ccc2ccc(Cl)cc2[n+]13.F[P-](F)(F)(F)(F)F the EC50 was > 1000 nM (CDK9 with cyclin T1; enzyme activity, inhibitor).
With CCCCCCCC/C=C\CCCCCCCC(=O)NCCO the EC50 was 350 ± 70 nM (Transient receptor potential cation channel subfamily V member 1 (Trpv1, Mus musculus, UniProt Q704Y3); ion current, agonist, whole-cell patch clamp; HEK293; 24 °C, wild type, +80 mV).
